Measured values of several laboratories.
Target: histidine kinase ComD (Streptococcus pneumoniae serotype 4, UniProt A0A0H2US84)
Organism: Streptococcus pneumoniae
Sequence (A0A0H2US84 1-441, as in one of the studies): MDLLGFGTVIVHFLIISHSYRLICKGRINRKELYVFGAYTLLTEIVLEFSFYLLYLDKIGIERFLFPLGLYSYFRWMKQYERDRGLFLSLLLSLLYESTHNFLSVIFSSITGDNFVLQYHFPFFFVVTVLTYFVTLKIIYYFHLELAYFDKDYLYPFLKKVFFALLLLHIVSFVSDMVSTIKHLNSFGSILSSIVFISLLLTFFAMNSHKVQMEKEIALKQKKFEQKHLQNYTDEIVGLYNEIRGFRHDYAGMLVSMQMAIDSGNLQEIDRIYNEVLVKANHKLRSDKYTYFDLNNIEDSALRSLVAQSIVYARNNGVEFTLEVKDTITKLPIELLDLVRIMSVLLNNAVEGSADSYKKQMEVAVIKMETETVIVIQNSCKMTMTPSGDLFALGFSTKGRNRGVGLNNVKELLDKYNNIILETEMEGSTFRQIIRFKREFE

CC[C@H](C)[C@H](NC(=O)[C@H](Cc1ccccc1)NC(=O)[C@H](CCN)NC(=O)[C@H](CCCNC(=N)N)NC(=O)[C@H](Cc1ccccc1)NC(=O)[C@H](Cc1ccccc1)NC(=O)[C@H](CCN)NC(=O)[C@H](CO)NC(=O)[C@H](CC(C)C)NC(=O)[C@H](CCCNC(=N)N)NC(=O)[C@H](CCSC)NC(=O)[C@H](C)N)C(=O)N[C@@H](CC(C)C)C(=O)N[C@@H](CCC(N)=O)C(=O)N[C@@H](CCCNC(=N)N)C(=O)N[C@@H](CCCCN)C(=O)N[C@@H](CCCCN)C(=O)O — IC50 (Streptococcus pneumoniae cells): > 1000 nM
CC[C@H](C)[C@H](NC(=O)[C@H](Cc1c[nH]cn1)NC(=O)[C@@H](NC(=O)[C@H](CCC(N)=O)NC(=O)[C@H](CCCNC(=N)N)NC(=O)[C@@H](NC(=O)[C@@H](N)CCC(=O)O)[C@@H](C)CC)[C@@H](C)O)C(=O)N[C@H](C(=O)N[C@@H](Cc1ccccc1)C(=O)N[C@@H](Cc1ccccc1)C(=O)N[C@@H](Cc1ccccc1)C(=O)N[C@@H](Cc1ccccc1)C(=O)N[C@@H](Cc1ccccc1)C(=O)N[C@@H](CCCCN)C(=O)N[C@@H](CCCNC(=N)N)C(=O)N[C@@H](CCCNC(=N)N)C(=O)O)[C@@H](C)CC — EC50 (reporter gene, agonist; TIGR4 comX::lacZ; 30 min, pH 7.3, 37 °C): > 10000 nM
CC[C@H](C)[C@H](NC(=O)[C@H](CCCNC(=N)N)NC(=O)[C@H](CO)NC(=O)[C@H](CC(C)C)NC(=O)[C@H](CCCNC(=N)N)NC(=O)[C@H](CCSC)NC(=O)[C@H](C)N)C(=O)N[C@H](C(=O)N[C@@H](CCCNC(=N)N)C(=O)N[C@H](CC(=O)O)C(=O)N[C@@H](Cc1ccccc1)C(=O)N[C@@H](CC(C)C)C(=O)N[C@@H](Cc1ccccc1)C(=O)N[C@@H](CCC(N)=O)C(=O)N[C@@H](CCCNC(=N)N)C(=O)N[C@@H](CCCCN)C(=O)N[C@@H](CCCCN)C(=O)O)[C@@H](C)CC — IC50: > 1000 nM
CC[C@H](C)[C@H](NC(=O)[C@H](Cc1ccccc1)NC(=O)[C@@H]1CNC(=O)NC[C@H](NC(=O)[C@H](CO)NC(=O)[C@H](CC(C)C)NC(=O)[C@H](CCCNC(=N)N)NC(=O)[C@H](CCSC)NC(=O)[C@H](C)N)C(=O)N[C@@H](Cc2ccccc2)C(=O)N[C@@H](Cc2ccccc2)C(=O)N[C@@H](CCCNC(=N)N)C(=O)N1)C(=O)N[C@@H](CC(C)C)C(=O)N[C@@H](CCC(N)=O)C(=O)N[C@@H](CCCNC(=N)N)C(=O)N[C@@H](CCCCN)C(=O)N[C@@H](CCCCN)C(=O)O — EC50: > 1000 nM
CC[C@H](C)[C@H](NC(=O)[C@H](Cc1ccccc1)NC(=O)[C@H](C)NC(=O)[C@H](C)NC(=O)[C@H](Cc1ccccc1)NC(=O)[C@H](Cc1ccccc1)NC(=O)[C@H](C)NC(=O)[C@H](C)NC(=O)[C@H](CC(C)C)NC(=O)[C@H](CCCNC(=N)N)NC(=O)[C@H](CCSC)NC(=O)[C@@H](N)CCC(=O)O)C(=O)N[C@@H](CC(C)C)C(=O)N[C@@H](C)C(=O)N[C@@H](CCCNC(=N)N)C(=O)N[C@@H](CCCCN)C(=O)N[C@@H](CCCCN)C(=O)O — EC50: > 1000 nM
CC[C@H](C)[C@H](NC(=O)[C@H](C)N)C(=O)N[C@@H](CCCNC(=N)N)C(=O)N[C@@H](CCC(N)=O)C(=O)N[C@H](C(=O)N[C@@H](Cc1c[nH]cn1)C(=O)N[C@@H](CC(N)=O)C(=O)N[C@H](C(=O)N[C@@H](Cc1ccccc1)C(=O)N[C@@H](Cc1ccccc1)C(=O)N[C@@H](Cc1ccccc1)C(=O)N[C@@H](Cc1ccccc1)C(=O)N[C@@H](Cc1ccccc1)C(=O)N[C@@H](CCCCN)C(=O)N[C@@H](CCCNC(=N)N)C(=O)N[C@@H](CCCNC(=N)N)C(=O)O)[C@@H](C)CC)[C@@H](C)O — IC50 (reporter gene, antagonist; TIGR4 comX::lacZ; 30 min, 37 °C, together with: CSP2 250 nM): > 10000 nM
CC[C@H](C)[C@H](NC(=O)[C@H](Cc1ccccc1)NC(=O)[C@H](CCCN)NC(=O)[C@H](CCCNC(=N)N)NC(=O)[C@H](Cc1ccccc1)NC(=O)[C@H](Cc1ccccc1)NC(=O)[C@H](CCN)NC(=O)[C@H](CO)NC(=O)[C@H](CC(C)C)NC(=O)[C@H](CCCNC(=N)N)NC(=O)[C@H](CCSC)NC(=O)[C@H](C)N)C(=O)N[C@@H](CC(C)C)C(=O)N[C@@H](CCC(N)=O)C(=O)N[C@@H](CCCNC(=N)N)C(=O)N[C@@H](CCCCN)C(=O)N[C@@H](CCCCN)C(=O)O — IC50 (Streptococcus pneumoniae cells): > 1000 nM
CC[C@H](C)[C@H](NC(=O)[C@H](Cc1ccccc1)NC(=O)[C@H](Cc1c[nH]cn1)NC(=O)[C@@H](NC(=O)[C@H](CCC(N)=O)NC(=O)[C@H](CCCNC(=N)N)NC(=O)[C@@H](NC(=O)[C@@H](N)CCC(=O)O)[C@@H](C)CC)[C@@H](C)O)C(=O)N[C@@H](Cc1ccccc1)C(=O)N[C@@H](Cc1ccccc1)C(=O)N[C@@H](Cc1ccccc1)C(=O)N[C@@H](Cc1ccccc1)C(=O)N[C@@H](Cc1ccccc1)C(=O)N[C@@H](CCCCN)C(=O)N[C@@H](CCCNC(=N)N)C(=O)N[C@@H](CCCNC(=N)N)C(=O)O — EC50 (reporter gene, agonist; TIGR4 comX::lacZ; 30 min, pH 7.3, 37 °C): > 10000 nM
CC[C@H](C)[C@H](NC(=O)[C@H](CCCNC(=N)N)NC(=O)[C@H](CCSC)NC(=O)[C@H](C)N)C(=O)N[C@@H](CO)C(=O)N[C@@H](CCCNC(=N)N)C(=O)N[C@H](C(=O)N[C@H](C(=O)N[C@@H](CCCNC(=N)N)C(=O)N[C@@H](CC(=O)O)C(=O)N[C@@H](Cc1ccccc1)C(=O)N[C@@H](CC(C)C)C(=O)N[C@@H](Cc1ccccc1)C(=O)N[C@@H](CCC(N)=O)C(=O)N[C@@H](CCCNC(=N)N)C(=O)N[C@@H](CCCCN)C(=O)N[C@@H](CCCCN)C(=O)O)[C@@H](C)CC)[C@@H](C)CC — IC50: > 1000 nM

For quick reference, copied from above:
CC[C@H](C)[C@H](NC(=O)[C@H](C)N)C(=O)N[C@@H](CCCNC(=N)N)C(=O)N[C@@H](CCC(N)=O)C(=O)N[C@H](C(=O)N[C@@H](Cc1c[nH]cn1)C(=O)N[C@@H](CC(N)=O)C(=O)N[C@H](C(=O)N[C@@H](Cc1ccccc1)C(=O)N[C@@H](Cc1ccccc1)C(=O)N[C@@H](Cc1ccccc1)C(=O)N[C@@H](Cc1ccccc1)C(=O)N[C@@H](Cc1ccccc1)C(=O)N[C@@H](CCCCN)C(=O)N[C@@H](CCCNC(=N)N)C(=O)N[C@@H](CCCNC(=N)N)C(=O)O)[C@@H](C)CC)[C@@H](C)O — IC50 (reporter gene, antagonist; TIGR4 comX::lacZ; 30 min, 37 °C, together with: CSP2 250 nM): > 10000 nM
CC[C@H](C)[C@H](NC(=O)[C@H](Cc1ccccc1)NC(=O)[C@H](CCN)NC(=O)[C@H](CCCNC(=N)N)NC(=O)[C@H](Cc1ccccc1)NC(=O)[C@H](Cc1ccccc1)NC(=O)[C@H](CCN)NC(=O)[C@H](CO)NC(=O)[C@H](CC(C)C)NC(=O)[C@H](CCCNC(=N)N)NC(=O)[C@H](CCSC)NC(=O)[C@H](C)N)C(=O)N[C@@H](CC(C)C)C(=O)N[C@@H](CCC(N)=O)C(=O)N[C@@H](CCCNC(=N)N)C(=O)N[C@@H](CCCCN)C(=O)N[C@@H](CCCCN)C(=O)O — IC50 (Streptococcus pneumoniae cells): > 1000 nM
